Measurements of several laboratories.
Parts stem from different laboratories: compare values within a part only. Values joined by “and” are separate records of one study, mostly repeats; a detail may differ.
UniProt Q9BX84, sequence (whole entry, looked up): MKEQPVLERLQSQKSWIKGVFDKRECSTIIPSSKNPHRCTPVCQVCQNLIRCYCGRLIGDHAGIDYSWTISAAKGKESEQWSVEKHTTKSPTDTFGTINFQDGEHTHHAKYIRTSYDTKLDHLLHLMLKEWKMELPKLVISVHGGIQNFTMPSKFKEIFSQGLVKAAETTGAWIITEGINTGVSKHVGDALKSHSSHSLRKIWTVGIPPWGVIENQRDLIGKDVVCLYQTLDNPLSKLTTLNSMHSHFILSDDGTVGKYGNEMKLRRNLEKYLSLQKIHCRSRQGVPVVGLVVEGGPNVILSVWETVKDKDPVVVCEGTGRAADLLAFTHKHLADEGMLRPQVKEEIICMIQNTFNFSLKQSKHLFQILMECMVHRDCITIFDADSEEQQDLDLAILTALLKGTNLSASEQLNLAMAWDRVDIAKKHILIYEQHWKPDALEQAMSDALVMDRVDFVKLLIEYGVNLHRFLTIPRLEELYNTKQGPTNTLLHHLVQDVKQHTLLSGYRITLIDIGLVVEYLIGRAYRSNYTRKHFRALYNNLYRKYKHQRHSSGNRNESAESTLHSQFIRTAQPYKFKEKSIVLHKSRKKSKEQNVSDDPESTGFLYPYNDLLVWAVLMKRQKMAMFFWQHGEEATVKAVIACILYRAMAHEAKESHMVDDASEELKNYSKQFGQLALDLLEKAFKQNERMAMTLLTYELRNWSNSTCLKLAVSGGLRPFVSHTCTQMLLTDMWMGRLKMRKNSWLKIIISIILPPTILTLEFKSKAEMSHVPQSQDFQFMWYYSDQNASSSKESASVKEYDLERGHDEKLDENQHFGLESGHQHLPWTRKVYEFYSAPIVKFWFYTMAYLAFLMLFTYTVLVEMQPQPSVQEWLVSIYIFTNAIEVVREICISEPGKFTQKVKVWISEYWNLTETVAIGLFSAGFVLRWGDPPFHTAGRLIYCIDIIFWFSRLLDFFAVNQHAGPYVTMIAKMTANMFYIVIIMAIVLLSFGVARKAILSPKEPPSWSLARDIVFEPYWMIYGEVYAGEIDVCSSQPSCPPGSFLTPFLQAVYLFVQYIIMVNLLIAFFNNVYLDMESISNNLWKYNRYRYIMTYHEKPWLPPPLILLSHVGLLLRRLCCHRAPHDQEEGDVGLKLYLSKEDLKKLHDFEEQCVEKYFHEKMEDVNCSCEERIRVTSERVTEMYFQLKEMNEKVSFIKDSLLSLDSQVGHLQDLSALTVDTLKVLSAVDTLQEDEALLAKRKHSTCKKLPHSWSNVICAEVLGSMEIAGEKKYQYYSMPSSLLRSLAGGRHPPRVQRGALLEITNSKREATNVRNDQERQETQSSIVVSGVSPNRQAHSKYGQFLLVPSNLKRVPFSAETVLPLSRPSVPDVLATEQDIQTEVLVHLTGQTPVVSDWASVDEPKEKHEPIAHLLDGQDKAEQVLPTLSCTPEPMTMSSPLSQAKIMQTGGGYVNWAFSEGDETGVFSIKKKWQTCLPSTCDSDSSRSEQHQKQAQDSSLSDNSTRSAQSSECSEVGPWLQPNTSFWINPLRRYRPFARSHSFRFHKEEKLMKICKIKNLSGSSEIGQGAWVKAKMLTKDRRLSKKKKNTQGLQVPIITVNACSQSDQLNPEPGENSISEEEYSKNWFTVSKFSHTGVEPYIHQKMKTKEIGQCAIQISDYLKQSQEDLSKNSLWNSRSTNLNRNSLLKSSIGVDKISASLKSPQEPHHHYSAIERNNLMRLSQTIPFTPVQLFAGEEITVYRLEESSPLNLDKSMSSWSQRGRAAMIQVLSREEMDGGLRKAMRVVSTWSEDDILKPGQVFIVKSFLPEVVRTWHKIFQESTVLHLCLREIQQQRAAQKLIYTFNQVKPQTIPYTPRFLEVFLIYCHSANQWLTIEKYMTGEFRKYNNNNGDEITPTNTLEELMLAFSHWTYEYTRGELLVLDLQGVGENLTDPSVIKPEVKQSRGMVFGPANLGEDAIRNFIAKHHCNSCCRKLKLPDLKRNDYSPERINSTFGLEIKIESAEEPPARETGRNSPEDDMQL
UniProt O96017, sequence (whole entry, looked up): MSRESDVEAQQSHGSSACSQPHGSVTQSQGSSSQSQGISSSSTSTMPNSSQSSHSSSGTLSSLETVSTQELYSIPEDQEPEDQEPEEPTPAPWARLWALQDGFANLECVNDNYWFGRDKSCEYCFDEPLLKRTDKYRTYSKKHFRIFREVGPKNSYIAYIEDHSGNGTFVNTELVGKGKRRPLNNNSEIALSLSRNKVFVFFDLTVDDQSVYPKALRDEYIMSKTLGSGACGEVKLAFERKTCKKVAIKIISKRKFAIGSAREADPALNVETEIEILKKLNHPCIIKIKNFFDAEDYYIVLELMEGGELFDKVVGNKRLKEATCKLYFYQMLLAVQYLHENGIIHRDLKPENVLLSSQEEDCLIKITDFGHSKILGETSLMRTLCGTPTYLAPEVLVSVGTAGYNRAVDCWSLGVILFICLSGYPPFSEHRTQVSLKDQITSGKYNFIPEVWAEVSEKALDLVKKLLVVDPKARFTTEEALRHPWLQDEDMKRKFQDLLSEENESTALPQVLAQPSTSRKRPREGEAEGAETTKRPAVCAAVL
UniProt O75747, sequence (whole entry, looked up): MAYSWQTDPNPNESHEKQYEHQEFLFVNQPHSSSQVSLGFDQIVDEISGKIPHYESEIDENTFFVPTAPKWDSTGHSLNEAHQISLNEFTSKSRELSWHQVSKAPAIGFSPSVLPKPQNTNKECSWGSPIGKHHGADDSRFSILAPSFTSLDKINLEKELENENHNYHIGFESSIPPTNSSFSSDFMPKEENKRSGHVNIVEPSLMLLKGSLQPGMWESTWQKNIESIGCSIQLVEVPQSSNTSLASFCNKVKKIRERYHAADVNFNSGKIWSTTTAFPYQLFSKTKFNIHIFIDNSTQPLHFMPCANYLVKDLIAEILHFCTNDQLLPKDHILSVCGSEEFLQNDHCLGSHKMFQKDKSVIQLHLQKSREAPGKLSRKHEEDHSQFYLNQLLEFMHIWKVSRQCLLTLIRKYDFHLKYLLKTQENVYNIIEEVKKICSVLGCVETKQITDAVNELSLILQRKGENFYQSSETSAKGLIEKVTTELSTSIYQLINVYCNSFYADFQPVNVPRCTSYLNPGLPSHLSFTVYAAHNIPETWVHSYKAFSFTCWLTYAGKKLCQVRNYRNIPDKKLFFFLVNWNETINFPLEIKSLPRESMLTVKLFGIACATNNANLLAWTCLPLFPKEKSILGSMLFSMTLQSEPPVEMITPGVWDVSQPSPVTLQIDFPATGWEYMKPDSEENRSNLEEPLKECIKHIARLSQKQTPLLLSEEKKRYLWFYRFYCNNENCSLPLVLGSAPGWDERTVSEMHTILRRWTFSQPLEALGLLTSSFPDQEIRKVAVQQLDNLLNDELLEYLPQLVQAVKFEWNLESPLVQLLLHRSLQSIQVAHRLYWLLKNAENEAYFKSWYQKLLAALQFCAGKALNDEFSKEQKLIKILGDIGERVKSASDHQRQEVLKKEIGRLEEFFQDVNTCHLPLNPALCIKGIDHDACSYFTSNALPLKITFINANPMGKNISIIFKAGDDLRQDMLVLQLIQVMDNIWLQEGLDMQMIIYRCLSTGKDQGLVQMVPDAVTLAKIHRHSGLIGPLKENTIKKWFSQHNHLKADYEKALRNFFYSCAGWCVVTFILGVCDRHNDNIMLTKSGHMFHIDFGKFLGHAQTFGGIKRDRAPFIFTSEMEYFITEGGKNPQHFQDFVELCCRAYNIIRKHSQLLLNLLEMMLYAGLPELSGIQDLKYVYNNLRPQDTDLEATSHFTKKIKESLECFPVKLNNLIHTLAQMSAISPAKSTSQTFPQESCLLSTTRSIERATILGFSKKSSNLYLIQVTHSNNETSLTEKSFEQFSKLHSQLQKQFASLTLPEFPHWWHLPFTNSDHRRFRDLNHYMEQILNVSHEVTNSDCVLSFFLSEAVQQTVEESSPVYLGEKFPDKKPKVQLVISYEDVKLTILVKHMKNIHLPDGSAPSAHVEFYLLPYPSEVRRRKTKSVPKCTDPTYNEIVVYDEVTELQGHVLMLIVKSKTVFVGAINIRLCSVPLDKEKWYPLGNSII
UniProt P20794, sequence (whole entry, looked up): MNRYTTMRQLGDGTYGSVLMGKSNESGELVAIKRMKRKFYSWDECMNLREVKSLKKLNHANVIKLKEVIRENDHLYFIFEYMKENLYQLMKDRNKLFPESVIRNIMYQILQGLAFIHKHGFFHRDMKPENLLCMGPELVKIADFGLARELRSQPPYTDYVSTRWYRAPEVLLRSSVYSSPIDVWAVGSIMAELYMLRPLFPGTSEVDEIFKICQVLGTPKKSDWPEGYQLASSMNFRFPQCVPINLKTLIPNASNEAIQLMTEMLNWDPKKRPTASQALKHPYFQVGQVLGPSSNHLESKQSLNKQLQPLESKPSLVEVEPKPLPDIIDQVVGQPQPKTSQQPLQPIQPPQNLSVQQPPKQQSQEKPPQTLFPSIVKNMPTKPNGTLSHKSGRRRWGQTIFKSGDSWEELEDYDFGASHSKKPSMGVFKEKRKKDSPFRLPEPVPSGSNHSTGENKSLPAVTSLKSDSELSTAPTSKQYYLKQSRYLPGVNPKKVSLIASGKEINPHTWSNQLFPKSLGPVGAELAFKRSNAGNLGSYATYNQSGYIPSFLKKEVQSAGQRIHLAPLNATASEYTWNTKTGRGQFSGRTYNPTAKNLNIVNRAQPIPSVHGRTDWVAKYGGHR
UniProt Q9UEE5, sequence (whole entry, looked up): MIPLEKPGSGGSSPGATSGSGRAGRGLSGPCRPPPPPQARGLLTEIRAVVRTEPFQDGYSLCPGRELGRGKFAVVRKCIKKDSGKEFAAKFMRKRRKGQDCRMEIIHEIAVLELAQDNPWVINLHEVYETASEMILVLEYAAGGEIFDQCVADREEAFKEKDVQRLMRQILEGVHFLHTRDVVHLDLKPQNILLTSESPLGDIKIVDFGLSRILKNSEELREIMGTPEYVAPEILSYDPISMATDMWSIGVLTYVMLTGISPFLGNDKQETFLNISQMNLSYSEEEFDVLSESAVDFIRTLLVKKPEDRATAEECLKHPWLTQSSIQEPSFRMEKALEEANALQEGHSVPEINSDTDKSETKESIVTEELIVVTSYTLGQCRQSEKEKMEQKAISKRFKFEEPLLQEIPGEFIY

Block 1
Structure (SMILES): Cc1c(NC(=O)c2cc(C(N)=O)nc3cc(F)ccc23)c(C(F)(F)F)nn1Cc1ccc(C(C)(C)C)cc1
Technique: competition with immobilised ligand
Concentration: 1 µM
It gave 96% for remaining binding (Tyrosine-protein kinase Fgr (FGR, Homo sapiens, UniProt P09769); cell-free assay).
It gave 85% for remaining binding (Serine/threonine-protein kinase MAK (MAK, Homo sapiens, UniProt P20794); cell-free assay).
It gave 100% for remaining binding (Phosphatidylinositol 4,5-bisphosphate 3-kinase catalytic subunit alpha isoform (PIK3CA, Homo sapiens, UniProt P42336, I800L); cell-free assay).
The remaining binding was 100% (Eukaryotic translation initiation factor 2-alpha kinase 1 (EIF2AK1, Homo sapiens, UniProt Q9BQI3); cell-free assay).
For Serine/threonine-protein kinase 17A (STK17A, Homo sapiens, UniProt Q9UEE5); cell-free assay: remaining binding read 79%.
The remaining binding was 100% (Myosin light chain kinase (MYLK3, Homo sapiens, UniProt Q32MK0); cell-free assay).
Phosphatidylinositol 3-kinase C2 domain-containing subunit gamma (PIK3C2G, Homo sapiens, UniProt O75747); cell-free assay — remaining binding: 100%.
For Mast/stem cell growth factor receptor Kit, autoinhibited (KIT, Homo sapiens, UniProt P10721); cell-free assay: remaining binding read 100%.
For Serine/threonine-protein kinase Chk2 (CHEK2, Homo sapiens, UniProt O96017); cell-free assay: remaining binding read 99%.
The remaining binding was 100% (Transient receptor potential cation channel subfamily M member 6 (TRPM6, Homo sapiens, UniProt Q9BX84); cell-free assay).
It gave 100% for remaining binding (Serine/threonine-protein kinase MARK1 (MARK1, Homo sapiens, UniProt Q9P0L2); cell-free assay).
Tyrosine-protein kinase ABL1, non-phosphorylated (ABL1, Homo sapiens, UniProt P00519, F317I); binding — remaining binding: 100%.
The remaining binding was 100% (Cyclin-dependent kinase-like 2 (CDKL2, Homo sapiens, UniProt Q92772); cell-free assay).
Homeodomain-interacting protein kinase 4 (HIPK4, Homo sapiens, UniProt Q8NE63); cell-free assay — remaining binding: 88%.
For NUAK family SNF1-like kinase 1 (NUAK1, Homo sapiens, UniProt O60285); cell-free assay: remaining binding read 94%.
The remaining binding was 100% (Insulin receptor (INSR, Homo sapiens, UniProt P06213); cell-free assay).
The remaining binding was 100% (Platelet-derived growth factor receptor alpha (PDGFRA, Homo sapiens, UniProt P16234); cell-free assay).

Block 2
Cell line: HaCaT
Concentration: 100 µM
Time: 36 h
The viability of `Cn1c(=O)cc(N2CCC[C@@H](N)C2)n(Cc2ccccc2C#N)c1=O` is reported as 90.7%.
With `CNC(=O)c1cc(Oc2ccc(NC(=O)Nc3ccc(Cl)c(C(F)(F)F)c3)c(F)c2)ccn1` the viability was 11.5%.
The viability of `CC(=O)NO` is reported as 93.2%.
With `CC(C)NCC(O)COc1ccc(COCCOC(C)C)cc1` (racemic) the viability was 80.9%.
The viability of `CN(C)CCOC(=O)COc1ccc(Cl)cc1` is reported as 98%.
The viability of `c1ccc(Cc2nc3ccccc3[nH]2)cc1` is reported as 86.7%.

Block 3
SMILES: CC(=O)N[C@@H](Cc1c[nH]c2ccccc12)C(=O)N[C@@H](CCC(=O)C=[N+]=[N-])C(=O)OC(C)C
Species: C57BL/6 CES1-/- mice, EL4 tumour
Route: subcutaneous
Dose: 0.3 mg/kg/day DON equivalent
Time: 5 days
It gave 2.69e+07 a.u. and 1.66e+07 a.u. and 2.12e+07 a.u. and 2.89e+07 a.u. and 2.53e+07 a.u. and 2.82e+07 a.u. for “metabolite peak intensity” (UPLC-MS/MS, refers to: isocitrate; EL4, tumour; normalised to tissue mass; higher = more metabolite).
The “metabolite peak intensity” was 1.85e+06 a.u. and 2.42e+06 a.u. and 2.72e+06 a.u. and 2.71e+06 a.u. and 1.54e+06 a.u. and 2.56e+06 a.u. (UPLC-MS/MS metabolomics, refers to: N-acetylglucosamine 6-phosphate; EL4 tumour; normalised to tissue mass; higher = more metabolite).
It gave 2.15e+06 a.u. and 1.97e+06 a.u. and 1.56e+06 a.u. and 2.4e+06 a.u. and 1.31e+06 a.u. and 2.03e+06 a.u. for “metabolite peak intensity” (LC-MS/MS metabolomics, refers to: oxalate; EL4 tumour; higher = more metabolite).
UPLC-MS/MS, refers to: 4-hydroxyglutamate; EL4 tumour — “metabolite peak intensity”: 1.11e+06 a.u. and 809000 a.u. and 1.04e+06 a.u. and 257000 a.u. and 293000 a.u. and 1.35e+06 a.u.
For UPLC-MS/MS, refers to: inosine; EL4, tumour; normalised to tissue mass; higher = more metabolite: “metabolite peak intensity” read 2.83e+07 a.u. and 2.89e+07 a.u. and 2.07e+07 a.u. and 1.92e+07 a.u. and 2.56e+07 a.u. and 2.95e+07 a.u.
The “metabolite peak intensity” was 6.32e+06 a.u. and 5.44e+06 a.u. and 3.25e+06 a.u. and 6.2e+06 a.u. and 7.32e+06 a.u. and 3.88e+06 a.u. (LC-MS/MS metabolomics, refers to: 3-sulfo-L-alanine; EL4 tumour; normalised to tissue mass; higher = more metabolite).
The “metabolite peak intensity” was 504000 a.u. and 407000 a.u. and 487000 a.u. and 872000 a.u. and 380000 a.u. and 552000 a.u. (LC-MS/MS metabolomics, refers to: phenylpyruvate; EL4 tumour; higher = more metabolite).

Block 4
Target: STE20/SPS1-related proline-alanine-rich protein kinase (STK39, Homo sapiens, UniProt Q9UEW8)
Observed: enzyme activity
Action: inhibitor
Concentration: 0.5 µM
Reference: control
The remaining activity of `CN([C@@H](Cc1ccc(OS(=O)(=O)c2cccc3cnccc23)cc1)C(=O)N1CCN(c2ccccc2)CC1)S(=O)(=O)c1cccc2cnccc12` is reported as 93.5%.
With `CCOc1nc(NC(=O)Cc2cc(OC)ccc2OC)cc(N)c1C#N` the remaining activity was 92.7%.
For `c1ccc(-c2[nH]ncc2-c2ccnc3ccccc23)nc1`, the remaining activity was 88.7%.
For `Ic1cccc(CSc2nnc(-c3ccncc3)o2)c1`, the remaining activity was 101%.
The remaining activity of `Cc1cc2ncc(-c3ccccc3)nc2cc1C` is reported as 103%.
With `Cc1cn(-c2cc(NC(=O)c3ccc(C)c(Nc4nccc(-c5cccnc5)n4)c3)cc(C(F)(F)F)c2)cn1` the remaining activity was 96.3%.
`Nc1cccc(-c2cc3c(Oc4cccc(O)c4)ncnc3[nH]2)c1` gave a remaining activity of 119%.

For quick reference, copied from above (block 2):
With `CNC(=O)c1cc(Oc2ccc(NC(=O)Nc3ccc(Cl)c(C(F)(F)F)c3)c(F)c2)ccn1` the viability was 11.5%.
The viability of `CC(=O)NO` is reported as 93.2%.
With `CC(C)NCC(O)COc1ccc(COCCOC(C)C)cc1` (racemic) the viability was 80.9%.
The viability of `CN(C)CCOC(=O)COc1ccc(Cl)cc1` is reported as 98%.
The viability of `c1ccc(Cc2nc3ccccc3[nH]2)cc1` is reported as 86.7%.
